Assay results collected from several papers.
Parts stem from different laboratories: compare values within a part only. Positions count from the first letter of the parent shown.

Block 1
Target: CCNA1, cyclin fold, Cln2 fusion (human)
Technique: yeast growth competition, sequencing
Medium: yeast
Notes: weak parent motif
Relative to: not given
Direction: higher = stronger binding
Starting sequence: MICAL3 docking peptide (human); LQLRRQLSFSEDS
Variant | normalised enrichment score
LQLRRQLSFSGDS [E11G] | 0.545
LQLRRQLMFSEDS [S8M] | 0.66
LQLRRILSFSEDS [Q6I] | 0.102
LQLRRQLSFSVDS [E11V] | 0.136
LQLRRQLSFSEPS [D12P] | 0.612
LQLRRQLSFSRDS [E11R] | 0.56
LQLRPQLSFSEDS [R5P] | 0.224
LQLRRQLSFFEDS [S10F] | 0.517
LWLRRQLSFSEDS [Q2W] | -0.115
LQLSRQLSFSEDS [R4S] | 0.281
LQLRRQLAFSEDS [S8A] | 0.517
LQLFRQLSFSEDS [R4F] | -0.0523
LQLRRQLSFSLDS [E11L] | 0.372
LQLRRQLSFSEKS [D12K] | 0.222

Block 2
Target: Ras GTPase-activating protein-binding protein 1, full length (G3BP1, Homo sapiens, UniProt Q13283)
Chain of UniProt Q13283 (whole entry, looked up): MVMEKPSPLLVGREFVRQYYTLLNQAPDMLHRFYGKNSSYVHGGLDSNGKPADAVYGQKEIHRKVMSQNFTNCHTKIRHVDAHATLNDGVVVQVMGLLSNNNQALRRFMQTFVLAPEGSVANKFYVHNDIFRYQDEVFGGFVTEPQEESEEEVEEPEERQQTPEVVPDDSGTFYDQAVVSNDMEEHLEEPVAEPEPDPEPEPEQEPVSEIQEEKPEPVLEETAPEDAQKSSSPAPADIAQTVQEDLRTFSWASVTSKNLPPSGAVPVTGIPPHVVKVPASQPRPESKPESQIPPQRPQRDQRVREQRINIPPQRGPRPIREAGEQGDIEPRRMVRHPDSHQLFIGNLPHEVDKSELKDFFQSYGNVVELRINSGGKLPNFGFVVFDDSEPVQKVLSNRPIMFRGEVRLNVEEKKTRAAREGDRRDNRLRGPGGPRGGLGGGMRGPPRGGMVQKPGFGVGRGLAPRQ
Technique: RNA Bind-n-Seq
Form: RNA
Medium: in vitro
Tested at: 200 nM
Notes: whole 134-nt RNA, ends assumed
Added: 150 mM KCl
Relative to: input library
Direction: higher = stronger binding
Constant ends, left off below: GGGAGUUCUACAGUCCGACGAUC … UGGAAUUCUCGGGUGUCAAGG
Sequence | log2 enrichment
GCAGGAAGUAAAAACAAAUGGAAAUGCUUCGGAUAGUGGCAGGGGUGGGGGUUGCUAAGGAAAGGGUGGGAAAAGAGUGGGUAAAGAGUU | 0.813
CACAGACAACAUGCACCCACACAGACACAGAGGGAAGGGGUUGGGAUGGGGACAGGGUGCACAGCAGGGCGGGGUAGGACCCCAGCCCCU | 1.86
UGGCCCUGGUGGCAUGCGGGCAGGAAGAGGUGGCCUCAUGGAUCGUGGUGGUCCCGGUGGAAUGUUCAGAGGUGGCCGUGGUGGAGACAG | -0.0209
GCAGGAAGUAAAAACAAAUGGAAAUGCUUCGGAUAGUGGCAGGGGUGGGGGUUGCUAAGGAAAGGGUGGGAUGGGAGAAAGUAAAGAGUU | 0.777
UGGUAUUCAUGGGUAGUUUGAAAUAUCCAGAUGAGAAUGGAUUUGAUGCCUUCCUGAAGAAGCAUGGGGGUAGUGAUAAUGCCUCAACUG | -0.942
GCAGGAAGUGAAAACAAAUGGAAAUGCUUCGGAUAGUGGCAGGGGUGGGGGUUGCUAAGGAAAGGGUGGGAUGGGAGUGGGUAAAGAGUU | 0.576
UCAAGUCCUGUGCUACACAUCGUAUGUACCGAAUCGGUUGGGGUUGGGGUUGGGAAAGUAUUAUGUUACGCCGUUCGGAUCUGCACUUCC | 0.922
UGGGAGGUGGAUUUUGUUUAUUUUUUUAGCUCAUUUCCAGGGGUGGGAAUUUUUUUUUAAUAUGUGUCAUGAAUAAAGGUGUUUUUGAAA | 0.049
AGUCCUGUGCUACACAUCGUAUGUACCGAAUCGGGAAAAAAAGGGAGGGAAAAAGGGAAAGUAUUAUGUUACGCCGUUCGGAUCUGCACU | -0.208

Block 3
Target: ABI1, truncated, D143A, DHFR fusion (Arabidopsis thaliana)
Technique: DHFR PCA, deep sequencing
Medium: yeast
Notes: methotrexate growth selection, single substitutions
Added: (+)-ABA 0.11 µM
Relative to: wild-type fitted maximum
Direction: higher = stronger binding
Starting sequence: PYL1, truncated, DHFR fusion (Arabidopsis thaliana); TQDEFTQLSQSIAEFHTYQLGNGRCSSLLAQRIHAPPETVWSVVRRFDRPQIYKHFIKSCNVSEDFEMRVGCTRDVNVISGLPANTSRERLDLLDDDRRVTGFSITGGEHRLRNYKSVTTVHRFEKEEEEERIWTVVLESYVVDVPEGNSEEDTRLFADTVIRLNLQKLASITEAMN; partner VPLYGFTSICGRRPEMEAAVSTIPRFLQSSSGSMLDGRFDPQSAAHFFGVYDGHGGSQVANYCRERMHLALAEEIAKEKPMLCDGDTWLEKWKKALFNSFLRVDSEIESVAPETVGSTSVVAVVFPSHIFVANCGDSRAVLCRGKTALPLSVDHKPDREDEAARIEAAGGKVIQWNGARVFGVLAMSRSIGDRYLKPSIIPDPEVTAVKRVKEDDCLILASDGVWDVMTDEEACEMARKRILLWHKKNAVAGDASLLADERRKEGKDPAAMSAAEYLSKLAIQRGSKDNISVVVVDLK
Variant | relative binding score [%]
A35M | -2.66
V62A | 3.18
V44E | -4.92
L20H | 47
Q51C | 7.71
E125D | 20.8
F124I | 63.2
A13Y | 0.775
T120W | -6.18
E128H | 61.4
Q19D | 50.2
P50I | -3.38
K116Y | -5.12
S63R | 24.8
D92L | -0.245
L138I | 1.75

Block 4
Target: Centromere-binding protein 1, full length, His-tagged (CBF1, Saccharomyces cerevisiae, UniProt P17106, residues 1-351)
Chain of UniProt P17106 (whole entry, looked up): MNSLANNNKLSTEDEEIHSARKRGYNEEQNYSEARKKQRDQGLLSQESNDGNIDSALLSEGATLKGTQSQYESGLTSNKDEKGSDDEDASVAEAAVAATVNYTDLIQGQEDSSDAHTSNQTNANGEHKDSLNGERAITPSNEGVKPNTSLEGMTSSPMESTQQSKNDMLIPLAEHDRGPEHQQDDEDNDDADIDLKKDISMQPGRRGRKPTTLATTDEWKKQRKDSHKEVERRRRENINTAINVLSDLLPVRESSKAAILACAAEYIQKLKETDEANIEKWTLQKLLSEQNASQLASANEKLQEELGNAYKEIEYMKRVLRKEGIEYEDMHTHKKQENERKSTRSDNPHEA
Technique: competition protein-binding microarray
Form: double-stranded DNA, one strand shown
Medium: in vitro
Tested at: 2 µM
Notes: whole 60-bp probe, lowest competitor level
Added: Pho4 competitor, 0.05 µM
Direction: higher = stronger binding
Constant ends, left off below: … GTCTTGATTCGCTTGACGCTGCTG
Sequence | fluorescence intensity [a.u.]
TTGCTCCTGGATTGGTTCGTGACTCGGCACTTTACG | 85.8
CGTATTGGTAACCATCACGTGCCGAGCAGTAGACCT | 4390
AAATACAAAGACAAGCATGTGCTTTCGGCAAAAGTG | 174
CTTCTGTAAATTTGGCCTGTGGGTGGACGCGCCCCG | 74.1
TTGAATGAGCAATCGCACGATGTCCCAATGGCACTC | 65.8
AAGTACGTCCTCTTGGCCGTGATGGCTGTTGTATTT | 68.2
CATTGGTGTCATTGTCATGATCCACTCTGACAACAA | 78.9
CCTGCTGGCCTGTACGACGTGCAAACATTCCATCGC | 67.6
GTCTTGTCTCATTGGCTAGTGGGTGTCCCCACTTCA | 61.5
ACATACGCATATTTGCACGTACAAGATAAAAAAAGC | 107
CCTCTTTTTCACCCGATTATTTTCATTTATTAGTAA | 77
TAATTGCGACGGCGTCACCTGGAGAAACGAAAGATG | 78.8
TTATTAGGTTCGAGTCACGTGATGGGTCCTTTTCTG | 14000
CTTTCCCGATCTTGTCGAGTGGGTGTAGCACATTTG | 59.1
CATACCCAACCTTGTATGGTGGGTGAAGATATTTGT | 70.5
TTCTCGAAGAGTCGGCACGGGATCCTGAAAAAAGCA | 410
CTAACGAAGGTTTGCTCCGTGGGTGACAAGCCAAGT | 72.3
CTTTCCCGATCTTGTATGGTGGGTGTAGCACATTTG | 65.4

Block 5
Target: RNA binding protein fox-1 homolog 2, RRM domain, GST-SBP tag (RBFOX2, Homo sapiens, UniProt O43251-10, residues 100-194)
Technique: RNA Bind-n-Seq
Form: RNA
Medium: in vitro
Tested at: 365 nM
Notes: natural RNA segment, single round, ends assumed
Relative to: no-protein control
Direction: higher = stronger binding
Constant ends, left off below: GGGAGUUCUACAGUCCGACGAUC … UGGAAUUCUCGGGUGCCAA
Construct (chain): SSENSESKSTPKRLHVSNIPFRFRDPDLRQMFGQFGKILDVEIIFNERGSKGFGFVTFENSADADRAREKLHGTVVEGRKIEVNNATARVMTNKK
Sequence | RBNS enrichment (R)
UGGGAGGUUUGAAGCUUACAAAUUGAGAACGUGCCAUGCAUGAAACAAAGGGUUCCAGGCUCCAGAGAGGAGAUCACCUCGACGCCAAUGUCACCGAGGCACCUGUCUCA | 9.27
AAAAGAAUAUUAAAUGCCUUUGGAAACAUGAAACAAAGUUAGGAGCCAGUAAGAAAGUGACAGAAGCAAUGAAUGUCUUAAUGCAGUAUAGUUAAAAUGGCUUCCCACAG | 1.49
UGAGGUCUGCGUCGGGCUUGGCUUUUCACAAAGGCUGAUGUCUUAACUGUCACCCAUAUGGUCCCUGGGCCACCGGGCAGCCUGGGGCGGUGUGUGUGCCAUGUCACAGC | 0.791
UGAACUAUGUUUUGGAAAGUUACAACUACUUUUACAUUAAGGAUGAGAAACUGGAGUGUUUUUGAUUUCAUGGUAAAAGUUUGUGUGUUUUACAUUUGAAUGUUCACAGU | 0.626
UUCAAGUGCCCAGAGUGCGGCAAGCGCUUCGGCCAGAGCUCAGUUCUGGCCAUCCAUGCCCGCACCCACCUGCCAGGCCGCACGUACAGCUGCCCCGAUUGUGGCAAGAC | 0.326
GGAAAAAGCUCGCAUUUUCAUCGUGCCUCCUGGAGUAGAGAAAUGGGAACGCCUCUCCCCUCCUUGUCCUUUCCAGUGGGUCUCAUCCCUUAUCUCGCUCUGGUGUUCAC | 1.09
AGGCACCUCACUGGGGAUUAUGACCAGGGUCUAGACGAGCUUGAGUCUGAAUUGAGUUUGUAUUUCUAGCACCCUGGGUUUUUACAUGUUUGCUCUUUUUGUUUUUGUUU | 1.19
UCUUUGGAUUAAAAGUCAUAAACUUAAAAAAAAAAAUCUCUUUAUUCAAAAAGAUAGUUAAAUCAUGCUACUGAGCCUAUGAUGUCGUUGAUGUUUGGUUCGGUAUUCUU | 0.401
AAGAGAGAGAGACCUUUAUCCCGUAACUGAGACCUUGGUUGAGGACUGGCAAUUUUAUAGAGGGUUGGUUUAGUUCUUUGCUUUUUCAACAGGAAAUAACACUUCAGGAG | 0.534
UUUGUGAUGUCAUAGUGCAAACUGCAGUGACCGGUAAAAUGACCUGACAUGUAACCGUUUUCAGGGAAUGCAGAGGGUGUUAACUAAUAGACAAAACCUUUAUCCCGCGU | 0.387
GAAGAGACCCUGAGGGAAGGGCAAGGCUUUUCCUUUUUGGCUCUGGUUCCCAGGGUCAUCCGCCUUCAACUCUGCAUGAGAUCUCCCUCCUAGAGACCAACUCUGUUUCA | 1.38
UCUUUUAAAAGUACACAGAAUUUCCAUUCCUUAUAAAGGUGGCAAAAUUGGUUUGUCAUUUACCUCCAUGUGACUCCUUGCCCCAUAUAAAUGUCAGCAUAUGUAGCAAG | 0.544

Repeated from above (block 4):
Sequence | fluorescence intensity [a.u.]
CATACCCAACCTTGTATGGTGGGTGAAGATATTTGT | 70.5
AAGTACGTCCTCTTGGCCGTGATGGCTGTTGTATTT | 68.2
GTCTTGTCTCATTGGCTAGTGGGTGTCCCCACTTCA | 61.5
TTCTCGAAGAGTCGGCACGGGATCCTGAAAAAAGCA | 410
ACATACGCATATTTGCACGTACAAGATAAAAAAAGC | 107
CTTCTGTAAATTTGGCCTGTGGGTGGACGCGCCCCG | 74.1
CTTTCCCGATCTTGTATGGTGGGTGTAGCACATTTG | 65.4
